# Measurements of several laboratories.
# Lines come from different studies, so protocols differ.
# Medium: plasma
Compound,species,route,dose,notes,half-life [h]
CN1CCC[C@]1(C)/C=C/S(=O)(=O)NC(=O)Nc1c2c(cc3c1CCC3)CCC2,human,oral,25 mg,"single dose, healthy volunteers",6.5
CC12CC(c3ccc(S(C)(=O)=O)cc3)C3=C4CCC(=O)C=C4CCC3C1CCC2(O)C(F)(F)C(F)(F)F (centres unmarked),human,intravenous,15.7 µg,,~40
CC(C)(O)c1ncc([S@](N)(=O)=NC(=O)Nc2c3c(cc4c2CCC4)CCC3)s1,human,oral,30 mg,"single dose, fasted, healthy volunteers",16.4
CC(=O)N[C@H](CSSC[C@H](N)C(=O)O)C(=O)N[C@H](C)C(=O)N[C@H](CCCNC(=N)N)C(=O)N[C@H](CCCNC(=N)N)C(=O)N[C@H](CCCNC(=N)N)C(=O)N[C@H](C)C(=O)N[C@H](CCCNC(=N)N)C(N)=O,male human,intravenous,5 mg,"single dose, healthy volunteers",18.5
O=C(CCc1ccc(CNC(C(=O)OC2CCCC2)C2CCCCC2)cn1)NO (centres unmarked),human,oral,40 mg,"multiple doses, once daily, patients",0.408
[2H]C([2H])([2H])NC(=O)c1ccc(N2C(=S)N(c3ccc(C#N)c(C(F)(F)F)c3)C(=O)C2(C)C)cc1F,male human,oral,40 mg,"single dose, fasted",140
O=C(CCc1ccc(CNC(C(=O)O)C2CCCCC2)cn1)NO (centres unmarked),human,oral,40 mg,"multiple doses, once daily, patients",0.754
CCc1cc(Nc2nc(-c3ccc(-n4cnc(C)c4)c(F)c3)cs2)c(C)cc1C,human,oral,100 mg,"multiple doses, once daily",8.7
